Literature values, collected from citations in different studies.
Compare with care: the assays were run in different laboratories. No end group written: not given here.

| Substance | tested on | test | system | setting | quantity | result |
| --- | --- | --- | --- | --- | --- | --- |
| Nc1ncnc2c([C@@H]3N[C@H](CO)[C@@H](O)[C@H]3O)c[nH]c12 | Marburg virus | viral replication | – | – | EC50 | 4.4 to 6.7 µM |
| MLEPFQILSISSFILSALHFMAWTIGHLNQIKR (BM2 transmembrane domain (Influenza B virus)) | – | solid-state NMR, measured: His27 | peptide, lipid membrane | highest macroscopic tetrad pKa | pKa | 7.9 |
| Tannic acid | SARS-CoV-2 main protease | enzyme activity, inhibitor | – | – | IC50 | 13.4 µM |
| maraviroc | HIV-1 | viral infection | Env-pseudovirus panel | – | IC90 | 0.002 µM |
| (−)-epigallocatechin-3-O-gallate | Ebola virus VP35 | dsRNA binding, inhibitor | – | – | IC50 | 43.5 µM |
| GCCSNPVCHLEHSNLC (α-conotoxin MII; ends and bridges not checked; cysteine pairing not given here; sequence looked up) | – | – | peptide, mice, conditioned place preference | dose not given | nicotine reward | decreased |
| Thimerosal | SARS-CoV-2 | cytopathic effect | Caco-2 | 10 µM | inhibition | 79.4% |
| (-)-epicatechin gallate | SARS-CoV-2 | viral replication | Vero E6 | 20 µM | cytopathic effect inhibition | -0.22% |

Repeated from above:
| Substance | tested on | test | system | setting | quantity | result |
| --- | --- | --- | --- | --- | --- | --- |
| (−)-epigallocatechin-3-O-gallate | Ebola virus VP35 | dsRNA binding, inhibitor | – | – | IC50 | 43.5 µM |
